Measurements of several laboratories.
± gives the spread as reported. In brackets after ≈: the same amount, converted by molar mass. Where no end group is shown, it is not given here.

guanidine hydrochloride  IC50 (coxsackievirus B3; cytopathic effect; HeLa, wild type; 48 h): 592 µM
O=C(CN1c2c(n[nH]c2-c2cccc(Cl)c2)-c2ccccc2S1(=O)=O)NN=Cc1ccc(Cl)cc1  EC90 (HIV-1; viral replication; PBMC): 27.1 µM
O=C(Nc1ccc(Cl)cc1)N1CCCC1c1nc(-c2ccccc2)no1 (stereo not drawn)  complete motility inhibition concentration (Brugia malayi; adult female and male): 50 to 100 µM
CC1CCN(CCCNC(=O)c2ccc3c(=O)n(CCc4ccccc4)c(=O)[nH]c3c2)CC1  maximal response (Hepatitis C virus; HCV infection, Gaussia luciferase reporter; Huh7.5.1 reporter cells; relative to: 10 µM cyclosporin A, DMSO, negative means inhibition): -74.8%
CCCCCCOc1c(OC)cc(NC(C)CCCNC(=O)C(N)CCCNC(=N)N)c2nc(C(C)(C)C)ccc12 (stereo not drawn)  MBC (Staphylococcus aureus; microbial killing; ATCC33591 MRSA; drug-resistant strain): > 20 µg/mL
C=C1[C@@H](C)[C@H]2[C@H](Cc3ccccc3)NC(=O)[C@]23[C@H](OC(C)=O)/C=C/[C@](C)(O)C[C@@H](C)C/C=C/[C@H]3[C@@H]1O  pycnidia number (Phyllosticta citricarpa; Citrus sinensis leaf disc; 10 µL of 10 mg/mL, 21 days, methanol solution): 43 ± 7
CN[C@@H]1[C@H](O)[C@H](NC)[C@H]2O[C@@]3(O)C(=O)C[C@@H](C)O[C@H]3O[C@@H]2[C@H]1O  inhibition zone (Neisseria gonorrhoeae; microbial growth, disc diffusion; ATCC49226; 40 µg/disc): 10 to 11 mm
CC[C@H](C)CCCCC(=O)N[C@@H](CCN)C(=O)N[C@H](C(=O)N[C@@H](CCN)C(=O)N[C@H]1CCNC(=O)[C@H]([C@@H](C)O)NC(=O)[C@H](CCN)NC(=O)[C@H](CCN)NC(=O)[C@H](CC(C)C)NC(=O)[C@@H](Cc2ccccc2)NC(=O)[C@H](CCN)NC1=O)[C@@H](C)O  time to defervescence (Klebsiella pneumoniae; human; intravenous, 2 mg/kg every 12 h, together with: amikacin once daily): ≤ 24 h
CC[C@H](C)[C@H](NC(=O)[C@H](CC(C)C)NC(=O)[C@H](Cc1c[nH]cn1)NC(=O)[C@H](Cc1c[nH]cn1)NC(=O)[C@@H](NC(=O)[C@H](Cc1ccccc1)NC(=O)[C@H](Cc1c[nH]cn1)NC(=O)[C@H](Cc1c[nH]c2ccccc12)NC(=O)[C@@H](NC(=O)[C@H](Cc1c[nH]cn1)NC(=O)[C@H](Cc1c[nH]cn1)NC(=O)[C@H](Cc1c[nH]c2ccccc12)NC(=O)[C@@H](N)CC(C)C)[C@@H](C)CC)C(C)C)C(N)=O  infectivity reduction (herpes simplex virus 1; extracellular virus, plaque; Vero, F; concentration not given, 24 h post-infection, added after entry): 81.9%
STFFRLFNRSFTQGRRRRSVQWCA  biofilm growth (Streptococcus sanguis; OD600; peptide, ATCC 49295, 4 h single-species biofilm; 128 µg/ml, 5 min exposure, OD600 read over 5 h): no effect
C=CCc1ccc(OC(C)=O)c(OC)c1  LD50 (Spodoptera frugiperda; topical, larvae): 2020 mg/kg
TAVDHVFLRF-NH2 (C-amide)  inhibition (Drosophila melanogaster; heart rate; wandering third instar larval heart; 40 nL injected, 1 µM, 10 min; relative to: DMS): 50%
O=C(CN1c2c(n[nH]c2-c2cccc(Cl)c2)-c2ccccc2S1(=O)=O)NN=Cc1ccc(Br)cc1  EC90 (HIV-1; viral replication; PBMC): 22.2 µM
TDVDHVFLRF-OH (C-acid)  inhibition (Drosophila melanogaster; heart rate; peptide, wandering third instar larval heart; 40 nL injected, 1 µM, 10 min; relative to: DMS): 27%
CC(C)(O/N=C(\C(=O)N[C@@H]1C(=O)N2C(C(=O)[O-])=C(C[n+]3ccccc3)CS[C@H]12)c1csc(N)n1)C(=O)O  time to complete kill (Klebsiella pneumoniae; drug-resistant; 512 µg/mL, together with: TS-CATH 16 µg/mL): ≤ 4 h
CC[C@H](C)[C@H](NC(=O)[C@H](CCCCN)NC(=O)[C@H](CCC(=O)O)NC(=O)[C@H](CCCCN)NC(=O)[C@H](CO)NC(=O)[C@H](CCCCN)NC(=O)[C@H](CCCNC(=N)N)NC(=O)[C@H](Cc1ccccc1)NC(=O)[C@H](Cc1ccccc1)NC(=O)[C@H](CC(=O)O)NC(=O)CNC(=O)[C@H](CC(C)C)NC(=O)[C@@H](N)CC(C)C)C(=O)NCC(=O)N[C@@H](CCCCN)C(=O)N[C@@H](CCC(=O)O)C(=O)N[C@@H](Cc1ccccc1)C(=O)N[C@@H](CCCCN)C(=O)N[C@@H](CCCNC(=N)N)C(=O)N[C@H](C(=O)N[C@H](C(=O)N[C@@H](CCC(N)=O)C(=O)N[C@@H](CCCNC(=N)N)C(=O)N[C@H](C(=O)N[C@@H](CCCCN)C(=O)N[C@@H](CC(=O)O)C(=O)N[C@@H](Cc1ccccc1)C(=O)N[C@@H](CC(C)C)C(=O)N[C@@H](CCCNC(=N)N)C(=O)N[C@@H](CC(N)=O)C(=O)N[C@@H](CC(C)C)C(=O)N[C@H](C(=O)N1CCC[C@H]1C(=O)N[C@@H](CCCNC(=N)N)C(=O)N[C@H](C(=O)N[C@@H](CCC(=O)O)C(=O)N[C@@H](CO)C(=O)O)[C@@H](C)O)C(C)C)[C@@H](C)CC)C(C)C)[C@@H](C)CC  MIC ratio (Staphylococcus aureus; JE2 SAUSA300_0645 graR transposon mutant; 12.5% TSB; relative to: wild type over mutant): 2 fold
OCCn1c(Cl)nc2cc(Br)c(Br)cc21  inhibition (Human immunodeficiency virus 1; viral replication, inhibitor; TZM-bl; 1 µg/mL): 14.9%
COc1cc(NC(C)CCCN)c2nc(C(C)(C)C)ccc2c1Oc1ccc(Cl)c(Cl)c1 (stereo not drawn)  MBC (Staphylococcus aureus; microbial killing; ATCC33591 MRSA; drug-resistant strain): 10 µg/mL (≈ 21 µM)
CC(=NNC(=O)CN1c2c(-c3ccccc3)n[nH]c2-c2ccccc2S1(=O)=O)c1cc(C)sc1C  EC90 (HIV-1; viral replication; PBMC): > 100 µM
CCCCCCCOc1c(OC)cc(NC(C)CCCNC(=O)C(N)C(C)CC)c2nc(C(C)(C)C)ccc12 (stereo not drawn)  MBC (Staphylococcus aureus; microbial killing; ATCC33591 MRSA; drug-resistant strain): 5 µg/mL (≈ 9.21 µM)
CC(C)C[C@H](NC(=O)[C@H](Cc1ccccc1)NC(=O)[C@H](CS)NC(=O)[C@@H](N)CCCCN)C(=O)N[C@@H](CCCNC(=N)N)C(=O)N[C@@H](CCCNC(=N)N)C(=O)N[C@@H](CCCNC(=N)N)C(=O)N[C@@H](CCCNC(=N)N)C(=O)N[C@@H](CO)C(=O)N[C@@H](CCCNC(=N)N)C(=O)N[C@@H](C)C(=O)O  MIC (Micrococcus luteus): 6 µM
CCCCCCCCCCCCCCCC(=O)N/N=C/c1ccccc1Cl  MIC (Candida albicans, Aspergillus niger; fungal growth): 20.4 µM
DGEA  viral yield (rhesus rotavirus; peptide, mouse cholangiocytes; 1 mM, cell pretreatment; relative to: serum-free medium): inhibited
CCCCCCCOc1c(OC)cc(NC(C)CCCNC(=O)C(N)CCCCN)c2nc(C(C)(C)C)ccc12 (stereo not drawn)  MBC (Staphylococcus aureus; MRSA ATCC 33591): > 20 µg/mL
CCOC(=O)[C@]1(CS)N[C@@H](C(=O)O)C(C)(C)S1  MIC (Proteus mirabilis; broth microdilution; clinical isolate; compound at 100 mg/L, together with: meropenem): 8 µg/mL
TFFRLFNRGRRRRSVQWCA  biofilm growth (Streptococcus sanguis; OD600; peptide, ATCC 49295, 4 h single-species biofilm; 128 µg/ml, 5 min exposure, OD600 read over 5 h): no effect
Cc1ccccc1-c1nc(CN2CCC(C(=O)NCC3CCCO3)CC2)c(C)o1 (stereo not drawn)  maximal response (Hepatitis C virus; HCV infection, Gaussia luciferase reporter; Huh7.5.1 reporter cells; relative to: 10 µM cyclosporin A, DMSO, negative means inhibition): -23.2%
HVFLRF-NH2 (C-amide)  inhibition (Drosophila melanogaster; gut contraction; wandering third instar larval gut; injection, 1 µM, within 10 min; relative to: DMS effect): 0%
CCCCCCCCOc1c(OC)cc(NC(C)CCCNC(=O)C2CCCN2)c2nc(C(C)(C)C)ccc12 (stereo not drawn)  MBC (Staphylococcus aureus; microbial killing; ATCC33591 MRSA; drug-resistant strain): 20 µg/mL (≈ 37 µM)
C[C@H]1c2cccc(O)c2C(=O)C2=C(O)[C@]3(O)C(=O)C(C(N)=O)=C(O)[C@@H](N(C)C)[C@@H]3[C@@H](O)[C@@H]21  survival (Borreliella garinii; in vitro BBB model crossing; 0.11 µg/mL, 5 h, together with: 4.1 µM peptide): 24.9%
insulin human  HIV DNA reduction (EcoHIV; qPCR; infected mice, brain; intranasal, dose not given, 1 month after infection): > 90%
COC(=O)[C@H](CO)NC(C)=C1C(=O)C=C2Oc3c(C(C)=O)c(O)c(C)c(O)c3[C@]2(C)C1=O  MIC99 (Candida tropicalis; broth microdilution; ATCC 750 fluconazole and amphotericin B resistant; 24 and 48 h): 0.22 µM (≈ 0.098 µg/mL)
CCCCCOc1c(OC)cc(NC(C)CCCN)c2nc(C(C)(C)C)cc(C)c12 (stereo not drawn)  MBC (Staphylococcus aureus; microbial killing; ATCC33591 MRSA; drug-resistant strain): > 20 µg/mL
DHVFLRF-NH2 (C-amide)  inhibition (Drosophila melanogaster; heart rate; wandering third instar larval heart; 40 nL injected, 1 µM, 10 min; relative to: DMS): 150%
CC[C@H](C)[C@H](NC(=O)[C@H](CCCCN)NC(=O)[C@H](Cc1c[nH]c2ccccc12)NC(=O)[C@H](Cc1c[nH]c2ccccc12)NC(=O)[C@H](CCCCN)NC(=O)[C@H](CCCCN)NC(=O)[C@H](CCCCN)NC(=O)[C@H](Cc1c[nH]c2ccccc12)NC(=O)[C@H](CCCCN)NC(=O)[C@H](CCCCN)NC(=O)[C@H](Cc1c[nH]c2ccccc12)NC(=O)[C@H](CCCCN)NC(=O)[C@H](CCCCN)NC(=O)[C@@H](NC(=O)[C@@H](NC(=O)[C@H](CCCCN)NC(=O)[C@@H](N)CCCNC(=N)N)[C@@H](C)CC)[C@@H](C)CC)C(=O)N[C@@H](Cc1c[nH]c2ccccc12)C(=O)N[C@@H](Cc1c[nH]c2ccccc12)C(=O)N[C@@H](CCCCN)C(=O)NCCOCCOCC(N)=O  PI-positive cells (Klebsiella pneumoniae; membrane permeabilization, flow cytometry; 9409; 4 µM): 79.3%
TRTRVSRLY  mortality (rhesus rotavirus; peptide, newborn BALB/c mice, RRV biliary atresia; intraperitoneal, 500 µg at birth and days 1 and 2, 21 days): 26.3%
CCCCCCCCOc1c(OC)cc(NC(C)CCCNC(=O)C(N)Cc2ccccc2)c2nc(C(C)(C)C)ccc12 (stereo not drawn)  MBC (Staphylococcus aureus; MRSA ATCC 33591): > 20 µg/mL
CP(=O)(O)CCC(N)C(=O)O (stereo not drawn)  herbicidal activity (Amaranthus palmeri; 500 g/ha, 13 days, AMAPA, post-emergence spray; relative to: untreated (0%), complete kill (100%)): 100%
Cc1ccccc1-c1nc(CN2CCC(C(=O)NCc3cccnc3)CC2)c(C)o1  maximal response (Hepatitis C virus; HCV infection, Gaussia luciferase reporter; Huh7.5.1 reporter cells; relative to: 10 µM cyclosporin A, DMSO, negative means inhibition): -42.7%
CC(=NNC(=O)CN1c2c(-c3ccccc3)n[nH]c2-c2ccccc2S1(=O)=O)c1cc(C)oc1C  EC90 (HIV-1; viral replication; PBMC): > 100 µM
CC(C)C[C@H](NC(=O)[C@H](C)NC(=O)[C@H](CCCCN)NC(=O)[C@H](C)NC(=O)[C@H](CC(C)C)NC(=O)[C@H](CCCCN)NC(=O)[C@H](CC(C)C)NC(=O)[C@H](Cc1c[nH]c2ccccc12)NC(=O)[C@H](CC(C)C)NC(=O)[C@@H]1CCCN1C(=O)[C@H](C)NC(=O)[C@H](CC(C)C)NC(=O)[C@H](CC(C)C)NC(=O)[C@H](CCCCN)NC(=O)[C@H](CC(C)C)NC(=O)[C@H](C)NC(=O)[C@H](CCCCN)NC(=O)[C@H](C)NC(=O)[C@H](CC(C)C)NC(=O)[C@H](CCCCN)NC(=O)[C@@H](N)CCCCN)C(=O)N[C@@H](CCCCN)C(=O)N[C@@H](CCCCN)C(=O)N[C@@H](C)C(N)=O  MIC50 (Pseudomonas aeruginosa; broth microdilution; PAO1; overnight, 37 °C): 0.86 ± 0.09 µM (≈ 2.29 µg/mL)
CC(=NNC(=O)CN1c2c(-c3ccccc3)n[nH]c2-c2ccccc2S1(=O)=O)c1cc2ccccc2o1  EC90 (HIV-1; viral replication; PBMC): > 100 µM
CC(=O)OC[C@]12Oc3ccc(-c4ccc5c(c4O)C(=O)C4=C(O)C[C@@H](C)[C@@H](OC(C)=O)[C@@]4(COC(C)=O)O5)c(O)c3C(=O)C1=C(O)C[C@@H](C)[C@H]2OC(C)=O  mycelial growth (Phyllosticta citricarpa; PDA plates; 10000 µg/mL, 504 h): 3.3 ± 0.2 cm
CC[C@H](C)CCCCC(=O)N[C@@H](CCN)C(=O)N[C@H](C(=O)N[C@@H](CCN)C(=O)N[C@H]1CCNC(=O)[C@H]([C@@H](C)O)NC(=O)[C@H](CCN)NC(=O)[C@H](CCN)NC(=O)[C@H](CC(C)C)NC(=O)[C@@H](CC(C)C)NC(=O)[C@H](CCN)NC1=O)[C@@H](C)O  reduction in bacterial burden (Klebsiella pneumoniae; BNCC 353393, XDR, carbapenem-resistant, compound-resistant, neutropenic mice, thigh infection; subcutaneous, 20 mg/kg once daily; relative to: vehicle): inactive
VRTRISGLY  viral yield (rhesus rotavirus; viral replication; peptide, mouse cholangiocytes; 1 mM, cell pretreatment with peptide; relative to: serum-free medium): no effect
CCCCCCOc1c(OC)cc(NC(C)CCCNC(=O)C(N)CCCCN)c2nc(C(C)(C)C)ccc12 (stereo not drawn)  MBC (Staphylococcus aureus; MRSA ATCC 33591): > 20 µg/mL
CCCCCn1c(=O)[nH]c2cc(C(=O)NCCCN3CCCCC3CC)ccc2c1=O (stereo not drawn)  maximal response (Hepatitis C virus; HCV infection, Gaussia luciferase reporter; Huh7.5.1 reporter cells; relative to: 10 µM cyclosporin A, DMSO, negative means inhibition): -55.6%
TDVDHVFLRA-NH2 (C-amide)  inhibition (Drosophila melanogaster; heart rate; wandering third instar larval heart; 40 nL injected, 1 µM, 10 min; relative to: DMS): 77%
